Experimental data pooled from the literature.
A part holds a random share of what one study measured.
Chain of UniProt O00571 (132-607, looked up): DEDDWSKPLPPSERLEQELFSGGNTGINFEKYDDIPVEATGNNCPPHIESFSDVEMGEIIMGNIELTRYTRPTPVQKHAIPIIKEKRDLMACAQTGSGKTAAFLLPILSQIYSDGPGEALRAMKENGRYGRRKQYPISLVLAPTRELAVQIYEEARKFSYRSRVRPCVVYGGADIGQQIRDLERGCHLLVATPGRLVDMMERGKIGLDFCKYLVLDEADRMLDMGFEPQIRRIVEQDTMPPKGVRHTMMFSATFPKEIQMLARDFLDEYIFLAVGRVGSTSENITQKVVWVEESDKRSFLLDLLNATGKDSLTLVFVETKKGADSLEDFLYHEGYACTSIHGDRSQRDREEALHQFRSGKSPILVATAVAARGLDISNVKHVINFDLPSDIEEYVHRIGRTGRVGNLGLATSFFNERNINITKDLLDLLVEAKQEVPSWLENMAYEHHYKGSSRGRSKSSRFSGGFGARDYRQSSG

Set 1
Target: Phosphate system positive regulatory protein PHO4, full length, GST-tagged (PHO4, Saccharomyces cerevisiae, UniProt P07270, residues 1-312)
Technique: competition protein-binding microarray
Form: double-stranded DNA, one strand shown
Matrix: in vitro
Concentration: 2 µM
Notes: whole 60-bp probe, lowest competitor level
Added: Cbf1 competitor, 0.05 µM
Direction: higher = stronger binding
Constant ends, left off below: … GTCTTGATTCGCTTGACGCTGCTG
Target sequence (chain): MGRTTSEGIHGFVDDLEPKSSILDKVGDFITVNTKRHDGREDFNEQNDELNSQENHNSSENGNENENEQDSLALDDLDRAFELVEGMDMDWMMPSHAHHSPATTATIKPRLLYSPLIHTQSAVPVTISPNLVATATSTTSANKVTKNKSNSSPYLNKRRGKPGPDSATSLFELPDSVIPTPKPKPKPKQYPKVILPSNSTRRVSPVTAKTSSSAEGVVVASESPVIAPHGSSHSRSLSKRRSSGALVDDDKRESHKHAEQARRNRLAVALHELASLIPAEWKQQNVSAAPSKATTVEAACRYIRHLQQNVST
For `TTACGCAGCTTTCGGCACGTGAGTACGGAAACACCA`, the fluorescence intensity was 17300 a.u.
`CGCCCTATTCTGCACAGCGTGATGGGCTGTCTGACA` has a fluorescence intensity of 6200 a.u.
`GAGGTTTACTCCAGTTTCGTGGGACTGTGCATTTTC` has a fluorescence intensity of 3910 a.u.
The fluorescence intensity of `CATACCCAACCTTGAACGGTGGGTGAAGATATTTGT` is reported as 4170 a.u.
The fluorescence intensity of `TATTGAAAGTTTGCGAACGTGAAGTAAAACTGCAAA` is reported as 7130 a.u.
With `AGCACCACAGCGTACCATGTGCGCTACGAGGCCTCA` the fluorescence intensity was 11200 a.u.
For `AAACCATTCAGGTCTTGCGTGCCGAGAATTTTTTTT`, the fluorescence intensity was 6330 a.u.
`CTAACGAAGGTTTTTCACGTGACATACAAGCCAAGT` has a fluorescence intensity of 12800 a.u.

Set 2
Sequence: CCUG
Technique: RNA Bind-n-Seq
Form: RNA
Matrix: in vitro
Notes: 4-mer, random 30-nt RNA, single round
Baseline: input library
Direction: higher = stronger binding
EIF4A1: Eukaryotic initiation factor 4A-I (EIF4A1, Homo sapiens, UniProt P60842, residues 1-406, full length assumed)
Chain of UniProt P60842 (whole entry, looked up): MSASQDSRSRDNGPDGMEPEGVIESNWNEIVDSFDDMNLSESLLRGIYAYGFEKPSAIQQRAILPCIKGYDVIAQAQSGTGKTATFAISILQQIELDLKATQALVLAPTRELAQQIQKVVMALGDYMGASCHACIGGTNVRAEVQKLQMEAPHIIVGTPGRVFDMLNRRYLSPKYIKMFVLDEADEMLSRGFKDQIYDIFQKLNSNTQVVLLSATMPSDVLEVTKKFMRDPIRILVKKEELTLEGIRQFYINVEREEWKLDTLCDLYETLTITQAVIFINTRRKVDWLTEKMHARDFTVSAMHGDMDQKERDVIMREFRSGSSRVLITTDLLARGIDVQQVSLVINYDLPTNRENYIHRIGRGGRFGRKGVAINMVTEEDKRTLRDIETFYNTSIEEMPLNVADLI
EIF4A1; 15 pmol, added: DMSO vehicle, 2 mM AMP-PNP — 4-mer enrichment: 1.62 fold.
For ATP-dependent RNA helicase DDX3X, helicase core (DDX3X, Homo sapiens, UniProt O00571, residues 132-607); not given, added: RocA, ADP, phosphate: 4-mer enrichment read 0.752 fold.
For EIF4A1; not given, added: RocA, ADP, phosphate: 4-mer enrichment read 0.662 fold.
It gave 0.611 fold for 4-mer enrichment (EIF4A1; 90 pmol, added: 3 µM DMDA-PatA, 2 mM ADP, 2 mM phosphate).

Set 3
Target: Replicase polyprotein 1ab, main protease (rep, Severe acute respiratory syndrome coronavirus 2, UniProt P0DTD1)
Observed: enzyme activity
Concentration: 20 µM
Notes: with DTT
`CCOC(=O)c1c(N)sc(-c2ccccc2)c1C` has an inhibition of 96%.
For `COc1ccc([N+](=O)[O-])c(S(=O)(=O)c2ccc(Cl)cc2)n1`, the inhibition was -13.1%.
With `O=c1c2ccccc2sn1-c1ccccc1` the inhibition was 98.2%.

Set 4
Target: TAR DNA-binding protein 43, full length, His tag (TARDBP, Homo sapiens, UniProt Q13148, residues 1-414)
Technique: RNA Bind-n-Seq
Form: RNA
Matrix: in vitro
Concentration: 20 nM
Notes: 6-mer, flanks averaged, single round
Added: 150 mM LiCl
Baseline: input library
Direction: higher = stronger binding
`GUUUCU`: “6-mer enrichment (R)” 1.08.
For `CGUCAC`, “6-mer enrichment (R)” read 0.87.
Under “6-mer enrichment (R)”, `UGCAUG` is recorded as 1.24.
`AGAUUA`: “6-mer enrichment (R)” 0.83.
`AGACAG`: “6-mer enrichment (R)” 0.865.
Under “6-mer enrichment (R)”, `CGAAUA` is recorded as 0.827.
`GAUCCG` — result for “6-mer enrichment (R)”: 0.874.
Under “6-mer enrichment (R)”, `CUCUAC` is recorded as 0.849.

Set 5
Target: Replicase polyprotein 1ab, polymerase (rep, Severe acute respiratory syndrome coronavirus 2, UniProt P0DTD1)
Observed: enzyme activity
Mode: inhibitor
Concentration: 20 µM
`COc1c(C)cnc(Cn2cnc3c(Cl)nc(N)nc32)c1C` gave an inhibition of -16.3%.
The inhibition of `CC(C)(C)NC(=O)[C@H]1CC[C@H]2[C@@H]3CC[C@H]4NC(=O)C=C[C@]4(C)[C@H]3CC[C@]12C` is reported as 1.1%.
`COC(=O)[C@@]12OC[C@]34[C@H]([C@@H](O)[C@@H]1O)[C@@]1(C)CC(=O)C(O)=C(C)[C@@H]1C[C@H]3OC(=O)[C@H](OC(=O)/C=C(\C)C(C)C)[C@@H]24` has an inhibition of -4.07%.
For `C=C(c1ccc(C(=O)O)cc1)c1cc2c(cc1C)C(C)(C)CCC2(C)C`, the inhibition was 2.2%.
For `CCCOc1ccn2c(C(C)=O)cc(-c3ccccc3S(C)(=O)=O)c2c1`, the inhibition was 4.73%.
For `CN1CCCN=C1/C=C/c1cccs1`, the inhibition was 4.06%.
`CC(C)C1=C2[C@H]3CC[C@@H]4[C@@]5(C)CC[C@H](OC(=O)CC(C)(C)C(=O)O)C(C)(C)[C@@H]5CC[C@@]4(C)[C@]3(C)CC[C@@]2([C@@H](O)CN(CCN(C)C)Cc2ccc(Cl)cc2)CC1=O` gave an inhibition of 2.4%.
`c1cncc(CN2CCC(n3ncc4c(N5CCOCC5)nc(-c5ccc6[nH]ccc6c5)nc43)CC2)c1` has an inhibition of -4.85%.
With `Cc1c(N)nc([C@H](CC(N)=O)NC[C@H](N)C(N)=O)nc1C(=O)N[C@H](C(=O)N[C@H](C)[C@@H](O)[C@H](C)C(=O)N[C@H](C(=O)NCCc1nc(-c2nc(C(=O)NCCC[S+](C)C)cs2)cs1)[C@@H](C)O)[C@@H](O[C@@H]1O[C@@H](CO)[C@@H](O)[C@H](O)[C@@H]1O[C@H]1O[C@H](CO)[C@@H](O)[C@H](OC(N)=O)[C@@H]1O)c1cnc[nH]1` the inhibition was 2.5%.
With `CC(C)[C@H](CO)Nc1nc(Nc2cccc(Cl)c2)c2ncn(C(C)C)c2n1` the inhibition was 0.45%.
`C[C@H](NC(=O)Cc1cc(F)cc(F)c1)C(=O)N[C@@H]1C(=O)N(C)c2ccccc2-c2ccccc21` has an inhibition of -0.56%.
The inhibition of `N[C@@H](Cc1cc(CP(=O)(O)O)cc(-c2ccccc2Cl)c1)C(=O)O` is reported as 2.82%.
`C[C@H](CS)C(=O)N1CCC[C@H]1C(=O)O` gave an inhibition of 14.4%.
With `CCOCCn1c(N2CCCN(C)CC2)nc2ccccc21` the inhibition was -2.23%.
`O=C1CCCCCCCCCCCCCCO1` gave an inhibition of 2.8%.
The inhibition of `O=[N+]([O-])c1ccc(O)c([N+](=O)[O-])c1` is reported as 2.78%.
For `C=C(C)[C@@H]1CC[C@]2(CO)CC[C@]3(C)[C@H](CC[C@@H]4[C@@]5(C)CC[C@H](O)C(C)(C)[C@@H]5CC[C@]43C)[C@@H]12`, the inhibition was -2.73%.
The inhibition of `CC1(C)CCC(C)(C)c2c1cc(C(=O)Nc1cc(F)c(C(=O)O)c(F)c1)c(O)c2Cl` is reported as 4.96%.
The inhibition of `C[N+]1(C)CCc2cc3c(cc2[C@H]1[C@@H]1OC(=O)c2c1ccc1c2OCO1)OCO3` is reported as -18.9%.
`Cc1cc(OCc2nnc(SC3CCCC3)n2-c2cccnc2)ccc1-c1ccc(S(C)(=O)=O)cc1` gave an inhibition of -0.11%.
`CC(=O)CC(c1ccc([N+](=O)[O-])cc1)c1c(O)c2ccccc2oc1=O` (stereo not shown) has an inhibition of 1.65%.
For `CC(=O)N[C@H](Cc1ccc2ccccc2c1)C(=O)N[C@H](Cc1ccc(Cl)cc1)C(=O)N[C@H](Cc1cccnc1)C(=O)N[C@@H](CO)C(=O)N[C@@H](Cc1ccc(NC(=O)[C@@H]2CC(=O)NC(=O)N2)cc1)C(=O)N[C@H](Cc1ccc(NC(N)=O)cc1)C(=O)N[C@@H](CC(C)C)C(=O)N[C@@H](CCCCNC(C)C)C(=O)N1CCC[C@H]1C(=O)N[C@H](C)C(N)=O`, the inhibition was 53.5%.
`CC[n+]1c(-c2ccccc2)c2cc(N)ccc2c2ccc(N)cc21` gave an inhibition of 97.7%.
With `Clc1cccc(C(c2ccc3[nH]cnc3c2)n2ccnc2)c1` (stereo not shown) the inhibition was 8.85%.
For `COc1cc(N)c(Cl)cc1C(=O)OCCN1CCCCC1`, the inhibition was 3.94%.

Set 6
Cell line: HEK-293T/ACE2
Concentration: concentration not given
Time: 16 (unit not given)
Baseline: vehicle
With `CCOC(=O)CCC(=O)O[C@H]1[C@H](O[C@@H]2[C@@H](C)[C@H](O[C@H]3C[C@@](C)(OC)[C@@H](O)[C@H](C)O3)[C@@H](C)C(=O)O[C@H](CC)[C@@](C)(O)[C@H](O)[C@@H](C)C(=O)[C@H](C)C[C@@]2(C)O)O[C@H](C)C[C@@H]1N(C)C` the viability was 101%.
`N=C1CCCN1Cc1[nH]c(=O)[nH]c(=O)c1Cl` gave a viability of 102%.
With `O=C(O[C@H]1C[N+]2(CCCOc3ccccc3)CCC1CC2)C(O)(c1cccs1)c1cccs1` the viability was 101%.
For `CCOC(=O)[C@H](CCc1ccccc1)N[C@@H](C)C(=O)N1CCC[C@H]1C(=O)O`, the viability was 94.8%.
